Results from different studies.
Every numbered part comes from another study and shows a few of its results, in no order. Several values in a cell are separate wells, animals, samples, runs or records.

Sample 1 — cell line: Huh-7; concentration: 10 µM; time: 24 h; endpoint: viability
Structure (SMILES) = c1ccc(CC2=NCCN2)cc1; result = 101%
Structure (SMILES) = Oc1cccc(O)c1; result = 99.6%
Structure (SMILES) = Cc1ncc(CO)c(CO)c1O; result = 99.6%
Structure (SMILES) = CC[C@]1(O)C[C@@H]2CN(CCc3c([nH]c4ccccc34)[C@@](C(=O)OC)(c3cc4c(cc3OC)N(C)[C@H]3[C@@](O)(C(=O)OC)[C@H](OC(C)=O)[C@]5(CC)C=CCN6CC[C@]43[C@@H]65)C2)C1; result = 58.2%
Structure (SMILES) = CC(=O)O[C@]1(C(C)=O)CC[C@H]2[C@@H]3C=C(Cl)C4=CC(=O)CC[C@]4(C)[C@H]3CC[C@@]21C; result = 90.3%
Structure (SMILES) = CCOC(N)=O; result = 99%
Structure (SMILES) = Oc1c(I)cc(Cl)c2cccnc12; result = 101%
Structure (SMILES) = CC(=O)Oc1ccc2c(c1)CC[C@@H]1[C@@H]2CC[C@]2(C)[C@@H](O)CC[C@@H]12; result = 95%
Structure (SMILES) = OC(CCN1CCCCC1)(c1ccccc1)C1C[C@@H]2C=C[C@H]1C2 (stereo partly drawn); result = 96.8%
Structure (SMILES) = CCCCOc1cc(C(=O)NCCN(CC)CC)c2ccccc2n1; result = 98.6%
Structure (SMILES) = O=C1C(O)=C([C@H]2CC[C@H](c3ccc(Cl)cc3)CC2)C(=O)c2ccccc21; result = 98.9%
Structure (SMILES) = CCC(NC(C)C)C(O)c1ccc(O)c(O)c1 (stereo not drawn); result = 102%
Structure (SMILES) = CN[C@@H]1[C@H](O)[C@H](NC)[C@H]2O[C@@]3(O)C(=O)C[C@@H](C)O[C@H]3O[C@@H]2[C@H]1O; result = 103%
Structure (SMILES) = NC(=O)C1(N2CCCCC2)CCN(CCCC(=O)c2ccc(F)cc2)CC1; result = 98.2%

Sample 2 — read-out: enzyme activity; mode: inhibitor; concentration: 77 µM; reference: untreated; endpoint: remaining activity
Target: DNA polymerase theta, ATPase domain (POLQ, Homo sapiens, UniProt O75417)
Sequence of UniProt O75417 (whole entry, unmodified, looked up): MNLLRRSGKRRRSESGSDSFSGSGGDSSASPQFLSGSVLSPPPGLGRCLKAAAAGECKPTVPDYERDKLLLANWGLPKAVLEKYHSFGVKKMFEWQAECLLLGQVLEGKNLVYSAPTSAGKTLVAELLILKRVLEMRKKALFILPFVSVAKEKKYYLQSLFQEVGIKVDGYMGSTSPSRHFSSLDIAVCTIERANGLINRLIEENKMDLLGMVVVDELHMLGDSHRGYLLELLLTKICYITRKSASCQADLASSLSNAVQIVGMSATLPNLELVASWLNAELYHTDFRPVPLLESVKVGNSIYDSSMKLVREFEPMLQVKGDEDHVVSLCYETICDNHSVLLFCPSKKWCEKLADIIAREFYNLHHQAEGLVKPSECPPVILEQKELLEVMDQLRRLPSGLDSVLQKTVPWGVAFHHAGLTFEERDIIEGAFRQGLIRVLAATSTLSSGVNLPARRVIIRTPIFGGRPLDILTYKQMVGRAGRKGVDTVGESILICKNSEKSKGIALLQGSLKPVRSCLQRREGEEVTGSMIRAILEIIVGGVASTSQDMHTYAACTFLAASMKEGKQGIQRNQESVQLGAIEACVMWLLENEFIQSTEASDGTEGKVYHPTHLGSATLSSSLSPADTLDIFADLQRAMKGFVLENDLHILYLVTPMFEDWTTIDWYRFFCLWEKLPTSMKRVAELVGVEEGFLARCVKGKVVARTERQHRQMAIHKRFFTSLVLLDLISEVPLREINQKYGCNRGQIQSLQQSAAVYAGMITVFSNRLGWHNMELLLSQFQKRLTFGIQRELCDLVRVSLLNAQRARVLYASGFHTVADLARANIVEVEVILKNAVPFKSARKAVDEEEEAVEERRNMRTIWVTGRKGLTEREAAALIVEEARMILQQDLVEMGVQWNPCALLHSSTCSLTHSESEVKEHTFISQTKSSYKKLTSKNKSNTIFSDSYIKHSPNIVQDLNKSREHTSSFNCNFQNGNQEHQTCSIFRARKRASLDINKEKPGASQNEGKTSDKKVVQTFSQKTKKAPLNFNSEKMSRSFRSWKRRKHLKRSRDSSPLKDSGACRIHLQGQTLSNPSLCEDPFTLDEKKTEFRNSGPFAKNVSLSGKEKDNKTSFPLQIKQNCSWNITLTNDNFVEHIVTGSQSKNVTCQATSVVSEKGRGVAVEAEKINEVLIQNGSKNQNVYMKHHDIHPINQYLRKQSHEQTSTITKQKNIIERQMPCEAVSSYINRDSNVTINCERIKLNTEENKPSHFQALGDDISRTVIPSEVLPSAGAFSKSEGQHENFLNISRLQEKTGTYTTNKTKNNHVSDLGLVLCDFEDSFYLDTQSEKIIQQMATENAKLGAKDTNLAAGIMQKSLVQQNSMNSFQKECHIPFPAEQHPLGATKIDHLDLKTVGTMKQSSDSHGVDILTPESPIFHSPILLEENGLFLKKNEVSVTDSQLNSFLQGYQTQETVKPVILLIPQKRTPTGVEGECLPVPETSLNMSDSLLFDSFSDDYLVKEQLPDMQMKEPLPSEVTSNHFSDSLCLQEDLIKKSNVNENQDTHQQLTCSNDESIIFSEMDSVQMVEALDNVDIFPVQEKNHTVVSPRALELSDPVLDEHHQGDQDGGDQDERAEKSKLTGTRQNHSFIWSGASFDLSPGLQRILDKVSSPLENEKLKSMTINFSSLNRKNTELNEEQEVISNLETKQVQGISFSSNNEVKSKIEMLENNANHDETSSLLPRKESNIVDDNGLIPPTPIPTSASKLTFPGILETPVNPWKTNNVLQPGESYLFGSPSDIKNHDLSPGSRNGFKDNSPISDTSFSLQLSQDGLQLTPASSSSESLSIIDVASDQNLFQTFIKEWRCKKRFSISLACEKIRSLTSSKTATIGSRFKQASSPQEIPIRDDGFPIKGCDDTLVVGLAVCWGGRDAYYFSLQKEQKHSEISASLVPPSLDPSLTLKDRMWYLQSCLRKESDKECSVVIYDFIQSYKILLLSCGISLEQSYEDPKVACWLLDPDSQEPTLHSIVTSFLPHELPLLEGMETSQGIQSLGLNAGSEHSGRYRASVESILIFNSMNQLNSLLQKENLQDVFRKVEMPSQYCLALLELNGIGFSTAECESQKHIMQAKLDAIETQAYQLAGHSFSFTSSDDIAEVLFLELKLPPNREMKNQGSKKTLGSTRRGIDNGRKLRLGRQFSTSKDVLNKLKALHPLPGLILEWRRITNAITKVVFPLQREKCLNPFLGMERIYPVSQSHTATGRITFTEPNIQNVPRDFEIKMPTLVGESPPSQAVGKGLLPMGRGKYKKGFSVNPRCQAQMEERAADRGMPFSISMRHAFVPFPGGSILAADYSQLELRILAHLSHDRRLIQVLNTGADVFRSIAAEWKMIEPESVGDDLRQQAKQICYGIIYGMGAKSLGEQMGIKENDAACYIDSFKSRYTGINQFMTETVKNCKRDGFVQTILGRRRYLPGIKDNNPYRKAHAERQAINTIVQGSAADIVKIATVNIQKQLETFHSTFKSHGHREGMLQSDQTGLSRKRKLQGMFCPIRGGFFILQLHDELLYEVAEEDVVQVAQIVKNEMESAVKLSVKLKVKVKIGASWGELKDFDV
Compound = CCOC(=O)[C@H](CCc1ccccc1)N[C@@H](C)C(=O)N1[C@H](C(=O)O)C[C@@H]2CCC[C@@H]21; result = 95% and 99.5%
Compound = Clc1cccc(Cl)c1NC1=NCCN1; result = 101%
Compound = CCCOc1cc(N)ccc1C(=O)OCCN(CC)CC; result = 105%
Compound = CCOC(=O)[C@H](CCc1ccccc1)N[C@@H](C)C(=O)N1Cc2ccccc2C[C@H]1C(=O)O; result = 104%
Compound = CNC(=O)c1cc(Oc2ccc(NC(=O)Nc3ccc(Cl)c(C(F)(F)F)c3)cc2)ccn1; result = 99.5% and 94% and 95.3% and 102% and 86.8%
Compound = O=c1c(-c2ccc(O)cc2)coc2c([C@@H]3O[C@H](CO)[C@@H](O)[C@H](O)[C@H]3O)c(O)ccc12; result = 89.6%
Compound = O=C(O)[C@@H]1[C@H]2C[C@H]3c4[nH]c5ccccc5c4CCN3C[C@@H]2CC[C@@H]1O; result = 98.1%
Compound = O=C(O)/C=C/c1ccc(O)c(O)c1; result = 98.4% and 98.7%
Compound = C#CC(N)CCC(=O)O (stereo not drawn); result = 102%

Sample 3 — read-out: ligand displacement; concentration: 10 µM; endpoint: inhibition
Target: D(1A) dopamine receptor (DRD1, Homo sapiens, UniProt P21728)
Sequence of UniProt P21728 (whole entry, looked up): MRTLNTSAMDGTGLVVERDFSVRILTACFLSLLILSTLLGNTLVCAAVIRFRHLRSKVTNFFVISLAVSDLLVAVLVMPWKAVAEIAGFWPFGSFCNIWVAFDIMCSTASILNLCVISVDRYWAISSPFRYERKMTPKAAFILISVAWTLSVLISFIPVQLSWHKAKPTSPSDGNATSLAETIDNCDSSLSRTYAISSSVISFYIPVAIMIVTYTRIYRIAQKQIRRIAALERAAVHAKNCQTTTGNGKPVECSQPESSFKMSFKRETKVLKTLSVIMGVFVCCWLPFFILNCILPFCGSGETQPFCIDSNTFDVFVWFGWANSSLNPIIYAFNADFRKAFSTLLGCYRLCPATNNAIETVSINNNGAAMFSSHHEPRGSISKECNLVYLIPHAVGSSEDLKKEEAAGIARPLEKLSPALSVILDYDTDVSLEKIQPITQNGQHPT
Structure (SMILES) = COc1cc(C(=O)O)ncc1C#Cc1ccccc1NS(=O)(=O)c1cccc2c(N(C)C)ccnc12; result = 17.8%
Structure (SMILES) = Cc1ccc(-c2cnc([C@@]3(O)CC[C@H](C(=O)O)C(C)(C)C3)s2)cc1Nc1cccc(C(F)(F)F)n1; result = 6.27%
Structure (SMILES) = O=C1NC(c2ccccn2)Sc2ccccc21 (stereo not drawn); result = 7.77%
Structure (SMILES) = O=C(Nc1ccc(Oc2ccc(F)cc2)cc1)N1CCc2ncccc2[C@H]1c1ccc(F)cc1; result = 39.1%
Structure (SMILES) = Cn1cc(Cl)c2c(Oc3c(F)cc(Nc4cc(Cl)nc(N)n4)cc3F)ccnc21; result = 13.2%
Structure (SMILES) = Cn1nc(C(=O)NCc2ccc(C(=O)O)cc2)cc1-c1ccc2[nH]ccc2c1; result = -19.6%
Structure (SMILES) = CCC(=NO)C(C)=Cc1ccc(F)c(C)c1; result = -0.91%
Structure (SMILES) = COc1cc(-c2cn(C3CCc4c(F)cccc4N(CC(F)(F)F)C3=O)nn2)ccc1-n1cnc(C)c1 (stereo not drawn); result = 5.87%
Structure (SMILES) = O=C(N[C@H]1CCCCC/C=C\C2C[C@@]2(C(=O)O)NC(=O)[C@@H]2C[C@@H](Oc3ccncc3)CN2C1=O)OC1CCCC1 (stereo partly drawn); result = -4.18%
Structure (SMILES) = CCC(F)(F)c1cc(N2CCC(S(C)(=O)=O)CC2)nc2sc(C(N)=O)c(N)c12; result = 25.7%
Structure (SMILES) = NC(=O)c1ccc2nc(-c3ccc(C4(N)CCC4)cc3)c(-c3ccccc3)n2n1; result = -3.8%
Structure (SMILES) = COc1cc(N[C@@H]2CCCC[C@]2(O)C(F)(F)F)ccc1F; result = -13%
Structure (SMILES) = CN(C)CC#Cc1ccc(OCCCc2sc(N3CCc4cccc(C(=O)Nc5nc6ccccc6s5)c4C3)nc2C(=O)O)c(F)c1; result = 24.6%
Structure (SMILES) = Nc1nc(NCc2ccccc2)nc(-c2cccc(CO)c2)n1; result = 3.99%
Structure (SMILES) = COc1ccc2cc(OCC3(C(=O)O)CN(C(=O)c4ccc(F)cc4)C3)ccc2c1; result = -26.6%
Structure (SMILES) = C[C@@H]1CN(c2cc(-c3n[nH]c4ccc(OC5(C)CC5)cc34)ncn2)C[C@H](C)O1; result = -17.4%
Structure (SMILES) = CS(=O)(=O)N1CCCC(NC(=O)[C@H](CCC2CCCCC2)NC(=O)c2ccc(CNC(=O)c3cnc4ccccn34)cc2)C1 (stereo partly drawn); result = -8.61%
Structure (SMILES) = CC(=O)Nc1ncc(CN2CCC[C@H](Cc3cc(C)nc(C)c3)C2)s1; result = -19.7%
Structure (SMILES) = Cc1cc(Nc2nccc(C)n2)cc(-c2cnc([C@@]3(O)CC[C@H](C(=O)O)C(C)(C)C3)s2)c1; result = -7.4%
Structure (SMILES) = NS(=O)(=O)c1cc(NC(=O)Cc2ccccc2)ccc1Oc1cccc(Cl)c1; result = 21.6%
Structure (SMILES) = CC(=O)N1CCC(c2ccc(C(=O)NC3=NCCN3)cc2C(F)(F)F)CC1; result = 4.8%

Sample 4 — read-out: enzyme activity; mode: inhibitor; concentration: 0.5 µM; reference: control; endpoint: remaining activity
Target: Inhibitor of nuclear factor kappa-B kinase subunit alpha (CHUK, Homo sapiens, UniProt O15111)
Sequence of UniProt O15111 (whole entry, looked up): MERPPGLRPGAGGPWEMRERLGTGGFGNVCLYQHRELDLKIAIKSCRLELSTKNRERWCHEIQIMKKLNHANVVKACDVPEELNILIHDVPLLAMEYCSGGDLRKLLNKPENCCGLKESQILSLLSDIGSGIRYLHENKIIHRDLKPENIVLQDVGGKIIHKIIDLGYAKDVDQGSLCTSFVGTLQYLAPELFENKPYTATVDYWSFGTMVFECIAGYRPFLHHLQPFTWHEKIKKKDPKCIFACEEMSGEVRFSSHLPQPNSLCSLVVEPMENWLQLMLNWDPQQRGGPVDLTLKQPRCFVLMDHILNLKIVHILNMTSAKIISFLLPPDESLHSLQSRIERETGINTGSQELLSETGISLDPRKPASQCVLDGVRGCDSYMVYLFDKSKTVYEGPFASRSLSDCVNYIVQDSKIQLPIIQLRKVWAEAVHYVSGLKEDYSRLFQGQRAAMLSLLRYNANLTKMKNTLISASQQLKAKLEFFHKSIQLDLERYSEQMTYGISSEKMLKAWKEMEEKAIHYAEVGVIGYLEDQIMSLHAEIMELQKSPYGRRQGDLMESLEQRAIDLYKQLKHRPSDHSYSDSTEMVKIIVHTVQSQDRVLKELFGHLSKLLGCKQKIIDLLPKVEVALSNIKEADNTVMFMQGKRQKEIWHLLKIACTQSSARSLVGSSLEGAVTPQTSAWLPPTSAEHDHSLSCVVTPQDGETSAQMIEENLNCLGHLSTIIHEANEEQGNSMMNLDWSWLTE
Compound = O=C(Nc1cccc(Nc2nccc(Nc3cccc(C(F)(F)F)c3)n2)c1)C1CC1; result = 95.7%
Compound = O=C1C(Cl)=C(N2C(=O)CCC2=O)C(=O)c2ccccc21; result = 101%
Compound = CCN(CC)C(=O)c1ccc(Nc2nc(OCC3CCCCC3)c3[nH]cnc3n2)cc1; result = 103%
Compound = CCOc1nc(NC(=O)Cc2cc(OC)ccc2OC)cc(N)c1C#N; result = 96.1%
Compound = COc1cc2c(cc1OC)-c1[nH]nc(Nc3cccc(F)c3)c1C2; result = 91.4%
Compound = Cc1cc2ncc(-c3ccccc3)nc2cc1C; result = 86.9%
Compound = COc1cc2ncnc(Nc3cccc(Cl)c3)c2cc1OC; result = 103%
Compound = COc1cc2ncnc(Nc3ccc(O)c(Br)c3)c2cc1OC; result = 107%
Compound = c1ccc(-c2[nH]ncc2-c2ccnc3ccccc23)nc1; result = 94.2%
Compound = c1ccc(-c2cnc(Nc3ccc(OCCN4CCCC4)cc3)s2)cc1; result = 93.3%
Compound = O=c1cc(-c2cccc3c2Sc2ccccc2S3)oc(N2CCOCC2)c1; result = 87.4%
Compound = C[C@@H]1CCN(C(=O)CC#N)C[C@@H]1N(C)c1ncnc2[nH]ccc12; result = 95%
Compound = Nc1cccc(-c2cc3c(Oc4cccc(O)c4)ncnc3[nH]2)c1; result = 102%
Compound = Cc1nc2cc3nc(-c4cccs4)cnc3cc2n1C; result = 96.2%
Compound = O=C1c2ccccc2-c2n[nH]c3cccc1c23; result = 111%
Compound = Ic1cccc(CSc2nnc(-c3ccncc3)o2)c1; result = 96.5%
Compound = Cc1cn(-c2cc(NC(=O)c3ccc(C)c(Nc4nccc(-c5cccnc5)n4)c3)cc(C(F)(F)F)c2)cn1; result = 98.7%
Compound = O=C(NC(NC(=S)Nc1ccc(F)c([N+](=O)[O-])c1)C(Cl)(Cl)Cl)C(c1ccccc1)c1ccccc1 (stereo not drawn); result = 91.5%
Compound = CN(C)C[C@H]1CCn2c(c(C3=C(c4cn(C)c5ccccc45)C(=O)NC3=O)c3ccccc32)C1; result = 103%
Compound = N#Cc1c(NC(=O)c2cccc3ccccc23)sc2c1CCCC2; result = 99.6%
Compound = N#C/C(=C\c1ccc(O)c(O)c1)C(=O)NCc1ccccc1; result = 103%
Compound = CCN(CC)CCNC(=O)c1c(C)[nH]c(/C=C2\C(=O)Nc3ccc(F)cc32)c1C; result = 92.4%
Compound = CCN(CC)CCNC(=O)c1c(C)[nH]c(/C=C2\C(=O)Nc3ccc(Cl)cc32)c1C; result = 102%
Compound = Cn1nc2c3c(cccc31)C(=O)c1ccccc1-2; result = 97%
Compound = CN([C@@H](Cc1ccc(OS(=O)(=O)c2cccc3cnccc23)cc1)C(=O)N1CCN(c2ccccc2)CC1)S(=O)(=O)c1cccc2cnccc12; result = 93.4%

Excerpt of the above (sample 3):
Structure (SMILES) = O=C1NC(c2ccccn2)Sc2ccccc21 (stereo not drawn); result = 7.77%
Structure (SMILES) = O=C(Nc1ccc(Oc2ccc(F)cc2)cc1)N1CCc2ncccc2[C@H]1c1ccc(F)cc1; result = 39.1%
Structure (SMILES) = Cn1cc(Cl)c2c(Oc3c(F)cc(Nc4cc(Cl)nc(N)n4)cc3F)ccnc21; result = 13.2%
Structure (SMILES) = Cn1nc(C(=O)NCc2ccc(C(=O)O)cc2)cc1-c1ccc2[nH]ccc2c1; result = -19.6%
Structure (SMILES) = CCC(=NO)C(C)=Cc1ccc(F)c(C)c1; result = -0.91%
Structure (SMILES) = COc1cc(-c2cn(C3CCc4c(F)cccc4N(CC(F)(F)F)C3=O)nn2)ccc1-n1cnc(C)c1 (stereo not drawn); result = 5.87%
Structure (SMILES) = O=C(N[C@H]1CCCCC/C=C\C2C[C@@]2(C(=O)O)NC(=O)[C@@H]2C[C@@H](Oc3ccncc3)CN2C1=O)OC1CCCC1 (stereo partly drawn); result = -4.18%
Structure (SMILES) = CCC(F)(F)c1cc(N2CCC(S(C)(=O)=O)CC2)nc2sc(C(N)=O)c(N)c12; result = 25.7%
Structure (SMILES) = NC(=O)c1ccc2nc(-c3ccc(C4(N)CCC4)cc3)c(-c3ccccc3)n2n1; result = -3.8%
